# Assay results collected from several papers.
# Parts stem from different laboratories: compare values within a part only.

# Sample 1 — technique: RNA Bind-n-Seq; form: RNA; matrix: in vitro; concentration: 200 nM; notes: whole 134-nt RNA, ends assumed; added: 150 mM LiCl; baseline: input library; direction: higher = stronger binding; all molecules: 7-deaza-guanosine replaces G
# Target: Ras GTPase-activating protein-binding protein 1, full length (G3BP1, Homo sapiens, UniProt Q13283)
# Sequence of UniProt Q13283 (whole entry, looked up): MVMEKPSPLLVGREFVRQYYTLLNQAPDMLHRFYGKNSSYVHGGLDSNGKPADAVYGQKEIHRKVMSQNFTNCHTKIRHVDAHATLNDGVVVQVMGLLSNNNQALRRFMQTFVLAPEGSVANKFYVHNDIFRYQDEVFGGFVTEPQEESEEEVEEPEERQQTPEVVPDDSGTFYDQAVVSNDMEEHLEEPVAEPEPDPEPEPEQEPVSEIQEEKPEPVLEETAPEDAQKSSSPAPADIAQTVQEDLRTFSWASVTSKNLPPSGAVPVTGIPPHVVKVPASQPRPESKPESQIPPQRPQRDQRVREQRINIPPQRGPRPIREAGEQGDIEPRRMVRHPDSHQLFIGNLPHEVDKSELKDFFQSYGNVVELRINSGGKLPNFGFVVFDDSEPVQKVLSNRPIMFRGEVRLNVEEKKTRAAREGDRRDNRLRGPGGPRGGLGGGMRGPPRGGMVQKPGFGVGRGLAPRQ
# All sequences stand within: GGGAGUUCUACAGUCCGACGAUC … UGGAAUUCUCGGGUGUCAAGG
Strand,log2 enrichment
UGGCCCUGGUGGCAUGCGGGGAGGAAGAGGUGUCCUCAUGGAUCGUGGUGGUCCCGGUGGAAUGUUCAGAGGUGGCCGUGGUGGAGACAG,0.124
CUGUGCUACACAUCGUAUGUACCGAAUCGGGGUUUUUUUGGUUUUUUUGGGUUUUUUUGGGGAAAGUAUUAUGUUACGCCGUUCGGAUCU,1.2
UCAAGUCCUGUGCUACACAUCGUAUGUACCGAAUCGGGGAAGGGGAAGGGGAAGGAAAGUAUUAUGUUACGCCGUUCGGAUCUGCACUUC,-0.577
UCCUGUGCUACACAUCGUAUGUACCGAAUCGGGAAAAAAGGGAAAAAAGGAAAAAAGGGGAAAGUAUUAUGUUACGCCGUUCGGAUCUGC,-0.432
CAAGUCCUGUGCUACACAUCGUAUGUACCGAAUCGGGGAGGGGAGGGGAAAGGGGAAAGUAUUAUGUUACGCCGUUCGGAUCUGCACUUC,0.357
CACAGACAACACGCACCCACACAGACACAGAGGGAAGGGGUUGGGAUGGGGACAGGGUGCACAGCAGGGCGGGGUAGGACCCCAGCCAAA,-0.694

# Sample 2 — technique: protein-binding microarray; form: double-stranded DNA, one strand shown; matrix: in vitro; concentration: 0.8 µM; notes: whole 60-bp probe, no competitor; direction: higher = stronger binding; all sequences stand within: … GTCTTGATTCGCTTGACGCTGCTG
# Target: Centromere-binding protein 1, full length, N-terminal tag (CBF1, Saccharomyces cerevisiae, UniProt P17106, residues 1-351)
# Sequence of UniProt P17106 (whole entry, looked up): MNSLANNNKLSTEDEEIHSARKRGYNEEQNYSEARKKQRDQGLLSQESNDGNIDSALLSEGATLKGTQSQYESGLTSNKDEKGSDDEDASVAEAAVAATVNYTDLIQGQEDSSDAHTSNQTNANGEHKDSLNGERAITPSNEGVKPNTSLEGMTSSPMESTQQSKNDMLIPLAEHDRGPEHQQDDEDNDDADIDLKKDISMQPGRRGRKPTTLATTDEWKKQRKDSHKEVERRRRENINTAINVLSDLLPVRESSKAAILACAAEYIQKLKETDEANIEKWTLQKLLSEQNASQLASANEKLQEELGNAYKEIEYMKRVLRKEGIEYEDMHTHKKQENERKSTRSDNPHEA
Strand,fluorescence intensity
CTATCGAGCTCAAGGTGAGTCACGATGCAGAACTTC,1080 a.u.
CTAACACTTCAACAACACGTGTCTGTGACCGCTTTC,5720 a.u.
GAAAAAAAATAAAAGCATGTGCGAACTCTAGTTTAG,696 a.u.
CTAAATAAGGTATGAAACATGACAGATGGTTAATTC,531 a.u.
GAACATCGCAAAAATCAGCTGAAAAATTTTGAATAG,531 a.u.

# Sample 3 — technique: aptamer microarray, sandwich; form: DNA with 2'F-ANA; matrix: in vitro; concentration: 200 nM; added: Cy3 exosite-II aptamer, 400 nM; direction: higher = stronger binding; strand: GGTTGGTGTGGTTGG
# Target: Prothrombin, mature alpha-thrombin (F2, Homo sapiens, UniProt P00734)
# Notes: whole 15-mer aptamer, many near background
Modification,mean fluorescence intensity
2'F-ANA at 1 8 11 12 13 15,333 a.u.
2'F-ANA at 2 5 6 7 8 9 12 15,157 a.u.
2'F-ANA at 2 3 4 5 6 7 10 11 13 15,48.6 a.u.
2'F-ANA at 4 5 6 9 10 11 13 14,47.3 a.u.
2'F-ANA at 1 2 4 10 11,49.5 a.u.
2'F-ANA at 1 3 4 6 9 10 11 12 15,101 a.u.
2'F-ANA at 1 3 4 5 8 12 13 15,89.9 a.u.

# Mixed results
Molecule,target,assay,system,setting,how to read,quantity,result
"PhoQ, residues 284 288 289 292 302 303 QWGLFV","PhoP, residues 12 14 15 18 19 TPLRH (Escherichia coli, UniProt P23836)","Sort-seq, refers to: YFP reporter",E. coli,"PhoQ-PhoP variant library, added: 10 µM Mg2+","baseline: high Mg2+ state, higher = stronger signaling",fold induction,0.972

# Repeated from above (sample 1):
Strand,log2 enrichment
UGGCCCUGGUGGCAUGCGGGGAGGAAGAGGUGUCCUCAUGGAUCGUGGUGGUCCCGGUGGAAUGUUCAGAGGUGGCCGUGGUGGAGACAG,0.124
